{"data": "Results collected from several papers", "note": "Numbers after ± are the reported error."}
{"Compound": "Nc1ccc2ccc(CCNCCCc3cccc(F)c3)cc2n1", "target": "Bacillus subtilis NOS chimera", "assay": "nitrite production, inhibitor", "conditions": "30 µM, 4 min, 35 °C, with: NOHA 200 µM", "how to read": "baseline: no inhibitor", "quantity": "remaining activity", "value": "6.1%"}
{"Compound": "O=C(Oc1nsnc1N1CCCCC1)N1CCOCC1", "target": "trypsin", "assay": "inhibitor", "conditions": "up to 300 µM, with: denatured BSA substrate", "quantity": "inhibition", "value": "no inhibition"}
{"Compound": "C/C=C(\\C)C(=O)N[C@@H](CCC(N)=O)C(=O)N[C@@H]1C(=O)N[C@@H](CCC(N)=O)C(=O)N[C@H]2CC[C@@H](O)N(C2=O)[C@@H](Cc2ccccc2)C(=O)N(C)[C@@H](Cc2ccc(O)cc2)C(=O)N[C@@H](C)C(=O)O[C@@H]1C (single isomer, unassigned)", "target": "trypsin", "assay": "enzyme activity, inhibitor", "conditions": "50 µg/mL, pH 7.6, 37 °C, 10 min preincubation, with: N-α-benzoyl-DL-arginine-4-nitroanilide 1 mM", "quantity": "inhibition", "value": "no inhibition"}
{"Compound": "COC(=O)[C@@H](CS)N1C(=O)c2ccc(N(C)C)cc2C1=O", "target": "NDM metallo-beta-lactamase variants", "assay": "probe", "conditions": "fully metalated active site", "how to read": "baseline: probe alone", "quantity": "fluorescence increase", "value": "17 to 18 fold"}
{"Compound": "CCCN(CCN1CCN(c2nccc3ccccc23)CC1)[C@H]1CCc2nc(N)sc2C1", "target": "dopamine D3 receptor, mouse", "assay": "agonist", "system": "D2 receptor knockout mouse, nucleus accumbens membranes", "quantity": "Hill coefficient", "value": "0.85 ± 0.1"}
{"Compound": "COc1ccc(OCC2c3cc(OC(C)C)ccc3CCN2C(=O)c2cccc(Cl)c2)cc1 (racemic)", "target": "rat GluN1/GluN2D NMDA receptor", "assay": "two-electrode voltage clamp", "system": "Xenopus oocytes", "conditions": "concentration not given, with: EC30 glutamate and glycine", "how to read": "baseline: vehicle", "quantity": "response potentiation", "value": "3 to 10 fold"}
{"Compound": "CC1CCN(Cc2cc(Cl)c3cccnc3c2O)CC1", "target": "Kir1.1 (ROMK)", "assay": "thallium flux", "how to read": "baseline: Kir7.1 over Kir1.1", "quantity": "selectivity ratio", "value": "6 fold"}
{"Compound": "C#CCCCN1C(=O)[C@@]2(CN2[S@@+]([O-])C(C)(C)C)c2ccccc21 (stereo partly drawn)", "target": "MYC", "assay": "reporter gene, inhibitor, luciferase reporter", "system": "HEK-293T", "conditions": "24 h", "quantity": "EC50", "value": "4500 nM"}
{"Compound": "CC(C)(NC(=O)Nc1ccc(Cl)c(-c2nc(C(F)(F)F)cs2)c1)c1cccc(C(N)=NO)c1", "target": "IMPDH 2, Staphylococcus aureus, G445S", "how to read": "baseline: mutant over wild type", "quantity": "apparent Ki ratio", "value": 190}
{"Compound": "Cc1ccc(-c2c(C=C(C#N)c3cnccn3)n(CCCO)c3ncnc(N)c23)cc1", "target": "RSK1 and RSK2, human", "assay": "RSK1 and RSK2 occupancy", "system": "MDA-MB-231", "conditions": "2 h, with: BODIPY-FMK probe 1 h", "quantity": "EC50", "value": "~5 nM"}
{"Compound": "CC(=NO)c1cccc(C(C)(C)NC(=O)Nc2ccc(Cl)c(-c3nc(C(F)(F)F)cs3)c2)c1", "target": "IMPDH 2, Staphylococcus aureus, G445S", "how to read": "baseline: mutant over wild type", "quantity": "apparent Ki ratio", "value": 320}
{"Compound": "O=C(O)c1cc2cc(Cl)cc(OCc3cn(CCC(=O)N4CCC(c5ccc(Cl)c(Cl)c5)CC4)nn3)c2c(Cl)c1OCc1cn(CCC(=O)N2CCC(c3ccc(Cl)c(Cl)c3)CC2)nn1", "target": "mPTPB vs other PTPs", "assay": "enzyme activity, inhibitor, biochemical enzyme", "how to read": "baseline: 19 other PTPs over mPTPB", "quantity": "selectivity ratio", "value": "> 25 fold"}
{"Compound": "Cc1cc(N)nc(-c2ccc(CNCCc3cccc(F)c3)cc2)c1", "target": "Bacillus subtilis NOS chimera", "assay": "nitrite production, inhibitor", "conditions": "30 µM, 4 min, 35 °C, with: NOHA 200 µM", "how to read": "baseline: no inhibitor", "quantity": "remaining activity", "value": "13.2%"}
{"Compound": "CC(C)(NC(=O)Nc1ccc(Cl)cc1)c1cccc(C(=N)NO)c1", "target": "IMPDH 2, Staphylococcus aureus, Y446C", "how to read": "baseline: mutant over wild type", "quantity": "apparent Ki ratio", "value": 300}
{"Compound": "COc1ccc(CN[C@@H]2CO[C@H](C(c3ccccc3)c3ccccc3)C[C@H]2O)cc1", "target": "calcium channel", "assay": "radioligand binding", "conditions": "10 µM, with: [3H]nitrendipine", "quantity": "inhibition", "value": "3.1%"}
{"note": "Some of these lines once more:"}
{"Compound": "CC(C)(NC(=O)Nc1ccc(Cl)c(-c2nc(C(F)(F)F)cs2)c1)c1cccc(C(N)=NO)c1", "target": "IMPDH 2, Staphylococcus aureus, G445S", "how to read": "baseline: mutant over wild type", "quantity": "apparent Ki ratio", "value": 190}
{"Compound": "COc1ccc(CN[C@@H]2CO[C@H](C(c3ccccc3)c3ccccc3)C[C@H]2O)cc1", "target": "calcium channel", "assay": "radioligand binding", "conditions": "10 µM, with: [3H]nitrendipine", "quantity": "inhibition", "value": "3.1%"}
